Experimental data collected from several papers.
Every numbered part comes from another study and shows a few of its results, in no order. Changes are numbered by the printed parent chain.

Series 1
Target: CCND3, cyclin fold, Cln2 fusion (human)
Technique: yeast growth competition, sequencing
Medium: yeast
Notes: weak parent motif
Reference: not given
Reading: higher = stronger binding
Starting sequence: CDKN1A docking peptide (human); SKACRRLFGPVDS
Variant	normalised enrichment score
SMACRRLFGPVDS [K2M]	0.763
SKACMRLFGPVDS [R5M]	0.0415
SKACRRLWGPVDS [F8W]	0.179
SKACRRLFGPQDS [V11Q]	0.265
SKACRRLFGPVAS [D12A]	0.104
SQACRRLFGPVDS [K2Q]	0.299
SKHCRRLFGPVDS [A3H]	0.277
SKATRRLFGPVDS [C4T]	0.515
SKACRRLFGAVDS [P10A]	0.28
SKACRRLFGYVDS [P10Y]	0.439
SKACRRLFGPVES [D12E]	0.183
SKRCRRLFGPVDS [A3R]	-0.225
SKAHRRLFGPVDS [C4H]	0.671
SKACRRLFYPVDS [G9Y]	0.309
SWACRRLFGPVDS [K2W]	-0.0579

Series 2
Target: RNA binding protein fox-1 homolog 2, RRM domain, GST-SBP tag (RBFOX2, Homo sapiens, UniProt O43251-10, residues 100-194)
Technique: RNA Bind-n-Seq
Form: RNA
Medium: in vitro
Tested at: 365 nM
Notes: natural RNA segment, single round, ends assumed
Reference: no-protein control
Reading: higher = stronger binding
Shared flanks, not repeated: GGGAGUUCUACAGUCCGACGAUC … UGGAAUUCUCGGGUGCCAA
Target sequence (chain): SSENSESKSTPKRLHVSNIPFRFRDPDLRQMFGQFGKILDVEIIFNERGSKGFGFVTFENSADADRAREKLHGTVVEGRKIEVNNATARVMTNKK
Sequence	RBNS enrichment (R)
AAUAGAGAAGGGUCCUGUGGAGUUCCAGGCCCUGGCUGCAAUGCUCCACACACACACACACCCCUCUUGCCCAGGUGGCCUCUUGUCCUCUGCUCUUGACUCUGCCAGCC	0.644
GAGCUAAGGGGUGUGGAGUCCUGCUCCUCCAUUUGUCCUGAUCAUUUCAACACCUGGCCCUUGCUCUCCUGCCCGUGCCAGGACUCCCUAACUCAGGGAGGGAGGGGAGG	0.55
AAAGAUAAGCCCGCCAUGCUGGGCUGGGGAACUCUGAAGAAGACCAGCAACGAGUACCUUCUCCCGCCUUGCCUCAGCGUAGAAGGGCUGCACUCUUGGCUGGUGUGAGU	1.06
UCAUGGCAUUGGUAAAUAUGGCAACGACUCCUACCGGAUCUUUUGUGUCAAUGAAUGGAAGCAGGUGCACCCUGAAGACCACAAGUUAAAUAAAUACCAUGACUGGCUUU	1.1
UACAAGCUCAAGGGCCAGAGCCCAGAGACCCAUUUUCCCCUCCAAGGAGUGGGGCAGGAAGGGUCUCCCAGGCACGCUGUGCUCACCCCCAGGGCCACAUCUCAGCUCUC	0.285
UACUUUUAAAAUUGUACCCAAACCAGGAAAUUCACAGAUGUACUGCAAUCAAACCUAAGCUGUUGCCACAAACCACUAAUGAAACUCAGUGUUUGAGCCAAAUCUCCGCA	1.74
CCGUCAGCGAUUGUUGUGUUACCUUCUGGUGUUCCCUCACUGAUUGUGGACAAACCUGGCAGUUGAGCUUUGCAGUCAAUUAUGCCGUAUCCCUGUGCAAACUCCCAUGU	0.29
UAGUUUUAUUUUGGUGGGGCUGGGCGGGAAGGAAGGCUGGGGUUUUGUAAAGUGUCCACUGCGCCGUUCGUUUAUUUCCCUCGAUUUUCUUCUUCCUCUCGCCUUCCUUC	0.617
UUGCCAAAGCCCUCAUAAAGCCCUCCGGCUUGAGGAGAGAGUGUAUAGUCAUGGGUUCUGCCUCUGUGCCCUUGCUGGCCGCUUCUCCUCUGCCUUCUUUCCUGGAACUC	0.359
UCCGCAUGUGUAGUCUCCCCUCGCCUCCCCCACCUCCCAUCCCCCUUUUUUCCAAUCAAGCUGUUUCCCCUGUUCUUACCCUAUAUAAGUUGCAAACAAUAUCGCUGAAC	4.37
UCUCCUGUGGAAGGGUCCCGGAACAUAUGCAUGGCGUCUGCUCGCGGCAGGUGGCAGGUGGUGUUGGGGAUGGUCCUGGAGGGGAUGGCCUGGGCAUACGCCGCCUCCAG	2.33
GAUGAAACUGAUUUGGAGCACCCUUUUCUUUAUCGCUACAUUUAUUUAGGGGACAAACUCCAUCCAGGUUGACUCUCUCUGGAAUGCGGUAAUAAGAGCUGGCAAGUAAG	0.843

Series 3
Target: CREBRF, bZIP domain (human)
Technique: DHFR protein complementation
Medium: yeast
Notes: single substitutions, most at no-binding floor
Reference: wild-type JUN-FOS pair
Reading: higher = stronger binding
Starting sequence: JUN, bZIP domain (human); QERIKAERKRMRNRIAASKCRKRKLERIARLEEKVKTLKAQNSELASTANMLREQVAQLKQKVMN; partner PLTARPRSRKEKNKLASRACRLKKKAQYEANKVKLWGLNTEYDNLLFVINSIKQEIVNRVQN
Variant	binding fitness [natural log]
S47C	-1.46
A40V	-1.29
T48D	-1.25
T37V	-1.44
N42Y	-1.58
T48F	-1.35
S43M	-1.4
M51W	-1.47
L31D	-1.38
V35F	-1.51
A49L	-1.45

Mixed results
Substance	target	assay	test system	conditions	scale	quantity	result
PhoQ, residues 284 288 289 292 302 303 MLMVEA	PhoP, residues 12 14 15 18 19 GHCSL (Escherichia coli, UniProt P23836)	Sort-seq, item: YFP reporter	E. coli	PhoQ-PhoP variant library, with: 10 µM Mg2+	reference: high Mg2+ state, higher = stronger signaling	fold induction	5.07
